Published values gathered from unrelated publications.
Compare with care: the assays were run in different laboratories. Values joined by “and” are separate records of one study, mostly repeats; a detail may differ. ± marks the error that the study gave.

The Tmax of `C/C(N)=N/C(=N\S(=O)(=O)c1ccc(C(F)(F)F)cc1)N1C[C@H](c2ccccc2)C(c2ccc(Cl)cc2)=N1` is reported as 120 min (C57BL/6 mouse, adipose tissue; intravenous, 10 mg/kg).
The Tmax of `O=S(=O)(N[C@H]1CCC[C@@H](N2c3ccccc3CCc3ccccc32)[C@@H]1O)c1ccc(OC(F)(F)F)cc1` is reported as 120 min (mouse, plasma; oral, 100 mg/kg, solution).
With `O=C(Cc1ccc(OCc2ccccc2)cc1)NC1(C(=O)O)CCN(C(=O)c2ccc(-c3cccc(Cl)c3)cc2)CC1` the Tmax was 40 ± 17.3 min (mouse BALB/c female; intraperitoneal, 20 mg/kg).
The Tmax of `CN[C@H](CC(C)C)C(=O)N[C@H]1C(=O)N[C@@H](CC(N)=O)C(=O)N[C@H]2C(=N)N[C@H]3C(=O)N[C@H](C(=O)N[C@H](C(=O)NCCC[N+](C)(C)C)c4cc(O)cc(O)c4-c4cc3ccc4O)[C@H](O)c3ccc(c(Cl)c3)Oc3cc2cc(c3O[C@@H]2O[C@H](CO)[C@@H](O)[C@H](O)[C@H]2O[C@H]2C[C@](C)(NCc3ccc(-c4ccc(Cl)cc4)cc3)[C@H](O)[C@H](C)O2)Oc2ccc(cc2Cl)[C@H]1O` is reported as 4.8 min (mouse; intravenous, 10 mg/kg).
For `Cc1ncsc1-c1ccc(CNC(=O)[C@@H]2C[C@@H](O)CN2C(=O)[C@@H](NC(=O)COCC(C)(COCCOCCOCCNC(=O)C[C@@H]2N=C(c3ccc(Cl)cc3)c3c(sc(C)c3C)-n3c(C)nnc32)COCCOCCOCCNC(=O)C[C@@H]2N=C(c3ccc(Cl)cc3)c3c(sc(C)c3C)-n3c(C)nnc32)C(C)(C)C)cc1`, the Tmax was 240 min (C57BL/6 mouse male, plasma; subcutaneous, 5 mg/kg).
`Cc1nn(-c2nc3c(F)cc(F)cc3s2)c(O)c1C(c1ccc(C(F)(F)F)cc1)c1c(C)nn(-c2nc3c(F)cc(F)cc3s2)c1O` gave a Tmax of 15 min and 45 min and 3 min (ICR mouse, plasma; intravenous, 5 mg/kg).
For `CC(C)OCCOCc1ccc(OCC(O)CN(N=O)C(C)C)cc1` (centres unmarked), the Tmax was 30 min (mouse NMRI, blood; oral, repeated dosing).
`CN[C@H](CC(C)C)C(=O)N[C@H]1C(=O)N[C@@H](CC(N)=O)C(=O)N[C@H]2CN[C@H]3C(=O)N[C@H](C(=O)N[C@H](C(=O)NCCCNC(=N)N)c4cc(O)cc(O)c4-c4cc3ccc4O)[C@H](O)c3ccc(c(Cl)c3)Oc3cc2cc(c3O[C@@H]2O[C@H](CO)[C@@H](O)[C@H](O)[C@H]2O[C@H]2C[C@](C)(NCc3ccc(-c4ccc(Cl)cc4)cc3)[C@H](O)[C@H](C)O2)Oc2ccc(cc2Cl)[C@H]1O` has a Tmax of 8.4 min (mouse; intravenous, 50 mg/kg).
`CC[C@H](C)[C@H](NC(=O)[C@H](CCCNC(=N)N)NC(=O)[C@H](Cc1c[nH]cn1)NC(=O)[C@@H](N)[C@@H](C)O)C(=O)N[C@@H](CC(C)C)C(=O)N[C@@H](CCCNC(=N)N)C(=O)N[C@@H](CCCNC(=N)N)C(=O)N[C@@H](CC(C)C)C(=O)N[C@@H](Cc1ccccc1)C(=O)N[C@@H](CC(N)=O)C(=O)N[C@@H](CC(C)C)C(=O)N[C@@H](CS)C(N)=O` has a Tmax of 1 min (male C57BL/6J mouse, plasma; intraperitoneal).
`Cc1[nH]nc2c1N=C(c1ccccc1Cl)c1cnc(N3CCOCC3)cc1N2` gave a Tmax of 60 min (nude mouse HCC1806 xenograft, plasma; oral, 10 mg/kg once daily).
For `O=C(NS(=O)(=O)c1cccs1)c1cc2ccccc2n1Cc1ccc(Br)c2ccccc12`, the Tmax was 25.2 min (mouse, plasma; oral, 2 mg/kg).

Some of these lines once more:
`CN[C@H](CC(C)C)C(=O)N[C@H]1C(=O)N[C@@H](CC(N)=O)C(=O)N[C@H]2CN[C@H]3C(=O)N[C@H](C(=O)N[C@H](C(=O)NCCCNC(=N)N)c4cc(O)cc(O)c4-c4cc3ccc4O)[C@H](O)c3ccc(c(Cl)c3)Oc3cc2cc(c3O[C@@H]2O[C@H](CO)[C@@H](O)[C@H](O)[C@H]2O[C@H]2C[C@](C)(NCc3ccc(-c4ccc(Cl)cc4)cc3)[C@H](O)[C@H](C)O2)Oc2ccc(cc2Cl)[C@H]1O` has a Tmax of 8.4 min (mouse; intravenous, 50 mg/kg).
